Measured values collected from several papers.
Protocols differ between the studies behind these lines. Values joined by “and” are separate records of one study, mostly repeats; a detail may differ. ± gives the spread as reported.

SMILES	cell line	test	conditions	how to read	quantity	value
Cc1c(Cl)cccc1Nc1ccccc1C(=O)[Se]CC(=O)Nc1cccc(C(F)(F)F)c1	NCI60 leukaemia subpanel	NCI60 five-dose screen			CC50	9.24 µM
O=C(O)c1ccc(-c2nc(-c3ccccc3Cl)c3sccn23)cc1	K562	erythroid differentiation, flow cytometry	0.1 mM, 48 h		CD235a-positive cells	61.8% and 70.5% and 66.4%
CCCCCCCC(=O)N[C@@H](CCCNC(=N)N)C(=O)N[C@@H](Cc1c[nH]c2ccccc12)C(=O)N[C@@H](CCCCN)C(=O)N[C@H](C(=O)N[C@@H](Cc1ccccc1)C(=O)N[C@@H](CCCCN)C(=O)N[C@@H](CCCCN)C(=O)N[C@H](C(=O)N[C@@H](CCC(=O)O)C(=O)N[C@@H](CCCCN)C(=O)N[C@H](C(=O)NCC(=O)N[C@@H](CCC(N)=O)C(=O)N[C@@H](CC(N)=O)C(=O)N[C@H](C(=O)N[C@@H](CCCNC(=N)N)C(=O)N[C@@H](CC(=O)O)C(=O)NCC(=O)N[C@H](C(=O)N[C@H](C(=O)N[C@@H](CCCCN)C(=O)N[C@@H](C)C(=O)NCC(=O)N1CCC[C@H]1C(=O)N[C@@H](C)C(=O)N[C@H](C(=O)N[C@@H](C)C(=O)N[C@H](C(=O)N[C@H](C(=O)NCC(=O)N[C@@H](CCC(N)=O)C(=O)N[C@@H](C)C(=O)N[C@@H](C)C(=O)N[C@H](C(=O)N[C@H](C(N)=O)[C@@H](C)CC)[C@@H](C)O)C(C)C)C(C)C)C(C)C)C(C)C)[C@@H](C)CC)[C@@H](C)CC)C(C)C)[C@@H](C)CC)[C@@H](C)CC	MX1	trypan blue exclusion	6 µM, 24 h		dead cells	40%
CC(C)C12OC1C1OC13C1(C)CCC4=C(COC4=O)C1CC1OC13C2OC(=O)CCCOC1OC(CO)C(O)C(O)C1O (stereo not drawn)	SNU-387	cell growth or viability, XTT	47 h		IC50	24.4 µM
CC[C@H](C)[C@H](NC(=O)[C@H](C)NC(=O)CNC(=O)[C@H](Cc1ccccc1)NC(=O)[C@H](CC(N)=O)NC(=O)[C@H](CC(N)=O)NC(=O)[C@H](CO[C@@H]1O[C@H](CO)[C@@H](O)[C@H](O)[C@H]1NC(C)=O)NC(=O)[C@H](CO)NC(=O)[C@H](Cc1c[nH]cn1)NC(=O)[C@@H](NC(=O)[C@H](CC(C)C)NC(=O)[C@H](Cc1ccccc1)NC(=O)[C@H](CC(N)=O)NC(=O)[C@H](C)NC(=O)[C@@H](N)CC(C)C)C(C)C)C(=O)N[C@@H](CC(C)C)C(N)=O	INS-1	MTT	10 equivalents to hIAPP, 24 h, added: hIAPP 1 µM		viability	78.4%
CC(=O)NCSC[C@H](NC(=O)[C@@H]1CCCN1C(=O)[C@H](C)NC(=O)[C@@H](NC(=O)CNC(=O)[C@@H](NC(=O)[C@H](Cc1c[nH]c2ccccc12)NC(=O)[C@H](C)NC(=O)CNC(=O)[C@H](CO)NC(=O)[C@H](C)NC(=O)[C@@H]1CCCN1C(=O)[C@H](Cc1c[nH]c2ccccc12)NC(=O)[C@H](C)NC(=O)[C@H](C)NC(=O)[C@@H](N)Cc1ccc(O)cc1)[C@@H](C)O)[C@@H](C)O)C(=O)N[C@@H](CO)C(=O)N[C@@H](C)C(=O)NCC(=O)N[C@H](C(=O)NCCOCCOCCOCCOCCOCCOCCOCCOCCOCCOCCOCCOCCC(=O)N[C@@H](CS)C(N)=O)[C@@H](C)O	Calu-3	phage binding		reference: targeting over control phage	selectivity ratio	1.6 ± 0.29
CC1CCC2C(C)C(OC(=O)CCC(=O)N3CCC(Nc4ccc(S(=O)(=O)NC(=O)c5ccc(N6CCN(CC7=C(c8ccc(Cl)cc8)CC(C)(C)CC7)CC6)cc5Oc5cnc6[nH]ccc6c5)cc4[N+](=O)[O-])CC3)OC3OC4(C)CCC1C32OO4 (stereo not drawn)	THP-1	annexin V/PI flow cytometry, item: annexin V+/PI+	0.4 µM, 24 h		late apoptotic cells	16.1%
COc1ccccc1-c1ccncc1C(=O)Nc1nnc(OCc2ccc(Cl)cc2)s1	RPE-1 BRCA1 WT parental		8 µM, run 1	reference: untreated	colony survival	75%
CC(C)[C@H](NC(=O)[C@H](CCCNC(=N)N)NC(=O)[C@@H]1CCCN1C(=O)[C@@H](NC(=O)[C@H](C)NC(=O)[C@H](Cc1ccc(O)cc1)NC(=O)[C@H](CCC(N)=O)NC(=O)[C@H](CCCCN)NC(=O)[C@H](CCCNC(=N)N)NC(=O)[C@@H]1CCCN1C(=O)[C@H](CCC(=O)O)NC(=O)[C@@H](NC(=O)[C@H](C)N)[C@@H](C)O)[C@@H](C)O)C(=O)N[C@@H](Cc1ccccc1)C(=O)N[C@@H](Cc1c[nH]c2ccccc12)C(=O)N[C@H](C(=O)N[C@@H](CC(=O)O)C(=O)N[C@@H](C)C(=O)N1CCC[C@H]1C(=O)NCC(=O)NCCOCCOCCOCCOCCOCCOCCOCCOCCOCCOCCOCCOCCC(=O)N[C@@H](CS)C(N)=O)[C@@H](C)O	PC-9	phage binding		reference: targeting over control phage	selectivity ratio	2.5 ± 1.2
NC(=S)N/N=C/c1ccc(OCc2cccc(F)c2)cc1	IMR-32	item: GPX3	400 µg/mL, 24 h	higher = more activity	glutathione peroxidase activity (OD450)	0.294 a.u.
Cc1cc(Oc2nc(N3CC[C@@H](c4ccncc4)C3)ncc2F)[nH]n1	NCI-H358M	cell proliferation			IC50	49 µM
CSCC[C@H](NC(=O)[C@H](CCC(=O)O)NC(=O)[C@H](CS)NC(=O)[C@H](Cc1ccccc1)NC(=O)[C@H](CC(N)=O)NC(=O)[C@@H]1CCCN1C(=O)[C@@H]1CCCN1C(=O)[C@H](CC(N)=O)NC(=O)[C@H](CC(C)C)NC(=O)[C@H](CCSC)NC(=O)[C@H](CC(C)C)NC(=O)[C@H](CS)NC(=O)[C@H](CCC(N)=O)NC(=O)CNC(=O)[C@H](Cc1ccc(O)cc1)NC(=O)[C@@H](NC(=O)[C@@H](NC(=O)[C@@H]1CCCN1C(=O)[C@@H](N)CS)C(C)C)[C@@H](C)O)C(=O)N[C@@H](CC(=O)O)C(=O)NCC(=O)N[C@@H](CCC(N)=O)C(=O)N[C@@H](CS)C(=O)N[C@@H](CCCCN)C(=O)O	RAW264.7	Western blot	concentration not given, 6 h pretreatment, added: LPS 30 min		p-NF-κB/NF-κB ratio	0.25 ± 0.02
CSCC[C@H](NC(=O)[C@@H](NC(=O)[C@H](CCC(N)=O)NC(=O)[C@H](CO)NC(=O)[C@@H](N)C(C)C)[C@@H](C)O)C(=O)N[C@@H](CCCNC(=N)N)C(=O)N[C@@H](CCC(N)=O)C(=O)N[C@H](C(=O)N[C@@H](C)C(=O)N[C@H](C(=O)N1CCC[C@H]1C(=O)N[C@@H](CC(C)C)C(=O)N[C@@H](CC(C)C)C(=O)N[C@@H](Cc1c[nH]c2ccccc12)C(=O)N[C@@H](Cc1ccccc1)C(=O)N[C@@H](Cc1c[nH]c2ccccc12)C(=O)N[C@H](C(=O)NCC(=O)N[C@@H](CO)C(=O)N[C@@H](CC(C)C)C(=O)NCCOCCOCCOCCOCCOCCOCCOCCOCCOCCOCCOCCOCCC(=O)N[C@@H](CS)C(N)=O)[C@@H](C)O)C(C)C)[C@@H](C)O	Calu-3	phage binding		reference: targeting over control phage	selectivity ratio	1.2 ± 0.58
CC(C)(C)C(=O)OCOP(=O)(OCOC(=O)C(C)(C)C)C1CCCN(O)C1=O (stereo not drawn)	NCI-H23				TGI	3.4 µM
CC(C)Cc1ccc(C(C)C(=O)[Se]CC(=O)Nc2cccc(C(F)(F)F)c2)cc1 (stereo not drawn)	NCI60 melanoma subpanel	cytotoxicity, inhibitor	five-dose		CC50	12 µM
CNC(=S)N/N=C/c1ccc(OCc2ccccc2)cc1	IMR-32	item: GPX3	100 µg/mL, 24 h	higher = more activity	glutathione peroxidase activity (OD450)	0.029 a.u.
O=C(C[Se]C(=O)c1ccco1)Nc1cccc(C(F)(F)F)c1	NCI60 melanoma subpanel	cell growth, inhibitor	five-dose		GI50	3.13 µM
COc1ccc(NC(=O)c2ccc3[nH]c(-c4ccc(N(C)C)cc4)nc3c2)cn1	HCT116	IncuCyte	concentration not given, 28 (unit not given)		PI-positive cells	156 count and 197 count and 133 count
O=C(C[Se]C(=O)c1ccccc1)Nc1cccc(C(F)(F)F)c1	NCI60 leukaemia subpanel	NCI60 five-dose screen			mean TGI	6.1 µM
CC(C)CC(O)(CC(C)C)c1cn(C(=O)N2CCCC2)nn1	mouse T-cells	SILAC proteomics, item: UQCRH	1 nM, 6 h, unit not given	reference: DMSO	protein level	0.9
O=C(C[Se]C(=O)c1cc2ccccc2s1)Nc1cccc(C(F)(F)F)c1	NCI60 leukaemia subpanel	NCI60 five-dose screen			CC50	10.4 µM
N[C@H](C(=O)N1CCCC1)C1CCN(c2nccc3c(-c4ncc(Cl)cc4Cl)cccc23)CC1	human neutrophils	protein citrullination, inhibitor, flow cytometry, item: citrullinated proteins	100 nM, added: ionomycin		inhibition	11.9% and 7.97% and 4.38% and 22.3%
O=C(C[Se]C(=O)c1ccccc1Nc1cccc(C(F)(F)F)c1)Nc1cccc(C(F)(F)F)c1	NCI60 leukaemia subpanel	NCI60 five-dose screen			CC50	10 µM
CC(C)C[C@H](NC(=O)[C@H](CC(=O)O)NC(=O)CNC(=O)[C@@H](N)CCCNC(=N)N)C(=O)N[C@@H](C)C(=O)N[C@H](C(=O)N[C@@H](CC(C)C)C(=O)N[C@@H](CCCNC(=N)N)C(=O)N[C@@H](CCC(N)=O)C(=O)N[C@@H](CC(C)C)C(=O)N[C@@H](C)C(=O)N[C@@H](CCC(N)=O)C(=O)N[C@@H](CCC(=O)O)C(=O)N[C@@H](CC(=O)O)C(=O)NCC(=O)N[C@H](C(=O)N[C@H](C(=O)NCC(=O)N[C@H](C(=O)N[C@@H](CCCNC(=N)N)C(=O)NCCOCCOCCOCCOCCOCCOCCOCCOCCOCCOCCOCCOCCC(=O)N[C@@H](CS)C(N)=O)C(C)C)C(C)C)C(C)C)[C@@H](C)O	H2126 lung adenocarcinoma	cell binding, phage binding, item: output/input phage	10 min, 37 °C	reference: control phage	selectivity ratio	28 ± 10

Excerpt of the above:
SMILES	cell line	test	conditions	how to read	quantity	value
O=C(O)c1ccc(-c2nc(-c3ccccc3Cl)c3sccn23)cc1	K562	erythroid differentiation, flow cytometry	0.1 mM, 48 h		CD235a-positive cells	61.8% and 70.5% and 66.4%
CNC(=S)N/N=C/c1ccc(OCc2ccccc2)cc1	IMR-32	item: GPX3	100 µg/mL, 24 h	higher = more activity	glutathione peroxidase activity (OD450)	0.029 a.u.
